Results pooled from the literature.
± marks the error that the study gave. Values after ≈ are worked out from the molar mass of the structure shown.
UniProt P21729, sequence (whole entry, looked up): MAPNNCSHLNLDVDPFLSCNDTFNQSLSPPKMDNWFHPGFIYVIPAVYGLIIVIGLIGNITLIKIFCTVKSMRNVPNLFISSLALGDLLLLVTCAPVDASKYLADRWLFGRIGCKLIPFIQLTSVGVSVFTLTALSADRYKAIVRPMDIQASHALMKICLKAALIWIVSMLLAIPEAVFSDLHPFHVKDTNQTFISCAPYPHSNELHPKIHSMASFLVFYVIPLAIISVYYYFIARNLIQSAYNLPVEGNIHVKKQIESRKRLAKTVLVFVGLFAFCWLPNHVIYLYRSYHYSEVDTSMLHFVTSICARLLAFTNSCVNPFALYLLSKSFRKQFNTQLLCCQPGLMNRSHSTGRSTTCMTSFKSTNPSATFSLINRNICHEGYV

CC#N.[Cl][Mn-2]([Cl])([Cl])[Cl].[Mn+2].c1ccc(CN2CCCN3CCCN(CCCN(Cc4ccccc4)CC3)CC2)cc1 — IC50 (Leishmania donovani; parasite growth, resazurin; 72 h, amastigote): 1.5 µM
FC(F)(F)c1ccc2nc3c4cccnc4c4ncccc4c3nc2c1.[Cl-].[Cl-].[Ru+2].c1ccncc1.c1ccncc1.c1ccncc1.c1ccncc1 — MIC90 (Enterococcus faecalis; VRE ATCC 51299; LED irradiation 470 nm): 2 µM
COc1ccc(-c2ccc3oc(-c4ccc(OC)cc4)c(C#CC4(O)CCCCC4)c3c2)cc1 — remaining activity (hepatitis C virus; viral entry, HCV pseudoparticle entry; genotype 1b; 10 µM; reference: DMSO): 76.5%
CC(=O)Oc1ccc(Cn2ccc(=O)[nH]c2=O)cc1C1OC(c2cccc(Cl)c2)=NN1C(C)=O (stereo not drawn) — EC50 (varicella-zoster virus; plaque formation, plaque reduction; HEL fibroblasts, TK- strain 07-1): > 20 µM
CC(=O)[O-].F[P-](F)(F)(F)(F)F.[Co+2].c1ccc(CN2CCCNCCN(Cc3ccccc3)CCCNCC2)cc1 — IC90 (Leishmania donovani; parasite growth, resazurin; 72 h, promastigote): > 15 µM
N=C(N)NCCC[C@@H]1NC(=O)[C@H](CCCCNC(=O)CNC(=O)CNC(=O)CNC(=O)CC[C@H](NC(=O)CCOCCOCCOCCOCCNC(=O)CC[C@H](NC(=O)CN2CCN(CC(=O)O)CCN(CC(=O)O)CCN(CC(=O)O)CC2)C(=O)NCCOCCOCCOCCOCCC(=O)N[C@@H](CCC(=O)NCC(=O)NCC(=O)NCC(=O)NCCCC[C@@H]2NC(=O)[C@@H](Cc3ccccc3)NC(=O)[C@H](CC(=O)O)NC(=O)CNC(=O)[C@H](CCCNC(=N)N)NC2=O)C(=O)NCC(=O)NCC(=O)NCC(=O)NCCCC[C@@H]2NC(=O)[C@@H](Cc3ccccc3)NC(=O)[C@H](CC(=O)O)NC(=O)CNC(=O)[C@H](CCCNC(=N)N)NC2=O)C(=O)NCC(=O)NCC(=O)NCC(=O)NCCCC[C@@H]2NC(=O)[C@@H](Cc3ccccc3)NC(=O)[C@H](CC(=O)O)NC(=O)CNC(=O)[C@H](CCCNC(=N)N)NC2=O)NC(=O)[C@@H](Cc2ccccc2)NC(=O)[C@H](CC(=O)O)NC(=O)CNC1=O [indium-111 labelled] — tissue uptake (female athymic nude mice, intestine; intravenous, 3 µCi, 0.5 h, U-87 MG glioma xenograft): 10.4 ± 1.52 %ID/g
CN[C@](C)(C[18F])C(=O)O — tracer uptake (SK-OV-3 tumour model; host not given, tumour; 30 min, tumour-bearing): 14.1 %ID/g
COc1ccc(CNc2nc(N3CCC[C@H]3CO)ncc2C(=O)NN)cc1Cl — revertant count (Salmonella typhimurium; TA100; 62.5 µg/plate, 48 h, with: rat liver S9): 153 ± 25
[Cl-].[Cl-].[Mn+2].c1ccc(CN2CCNCCN(Cc3ccccc3)CCNCC2)cc1 — IC90 (Leishmania donovani; parasite growth, resazurin; 72 h, amastigote): > 20 µM
C[C@@](O)(C(F)F)[C@H](NC(=O)c1ccc(C#CC#CC2CC2)cc1)C(=O)NO — apparent volume of distribution (Vz/F) (CD-1 mice; intraperitoneal, 40 mg/kg): 2.7 ± 0.7 L/kg
C[C@H]1[C@H](C)CC[C@]2(CO)CC[C@]3(C)C(=CC[C@@H]4[C@@]5(C)CCCNC(C)(C)[C@@H]5CC[C@]43C)[C@H]12 — selectivity index (Human papillomavirus 11; viral replication; C-33 A; reference: CC50 over EC50): < 3
Cc1ccc2ccc3ccc(C)nc3c2n1.Cc1ccc2ccc3ccc(C)nc3c2n1.O.[Cl-].[Cl-].[Cl-].[Yb+3] — zone of inhibition (Enterococcus; vancomycin-resistant; 5 mg/mL): 9 mm
S=C(NCc1ccccn1)NCc1ccccn1 — inhibition zone diameter (Agrobacterium tumefaciens; 20 µg/mL): 23 mm
CC/C=C\C/C=C\C/C=C\C/C=C\C/C=C\C/C=C\CCC(=O)Nc1ccn(C2OC(CO)C(O)C2(F)F)c(=O)n1 (stereo not drawn) — CC50 (HCC 2998; NCI60 screen): 67.5 µM
Nc1ccc(/C=C/C(=O)N2CCc3c(oc4c(-c5ccc(F)cc5)cc(-c5ccc(C(=O)N6CCC(F)(F)CC6)cn5)cc34)C2)cn1 — apoptotic cells (MIA PaCa-2; annexin V/PI flow cytometry; 2 µM, 72 h): 40.3%
N#Cc1c2nc3ccccc3nc2n2ccc(NC(=O)c3ccccc3Cl)cc12 — MIC50 (Mycolicibacterium smegmatis; microbial growth; 24 h): > 100 µM
CC(=O)[O-].F[P-](F)(F)(F)(F)F.[Cu+2].c1ccc(CN2CCN3CCN(CC2)CCN(Cc2ccccc2)CC3)cc1 — IC50 (Leishmania donovani; THP-1-derived macrophages, intracellular amastigotes): > 20 µM
COc1ccc(C2=[N+]([O-])c3ccccc3N3CCN=C23)cc1 — MIC (Finegoldia magna): 0.25 µg/mL (≈ 0.852 µM)
N#CCC(=O)NNC(=S)Nc1ccc(Cl)c(Cl)c1 — combination index (Nakaseomyces glabratus; PDR1 L280F mutant; concentration not given, with: ketoconazole): < 1
CCCNC(=O)[C@H](CC(C)C)NC(=O)[C@H](Cc1c[nH]cn1)NC(=O)CNC(=O)[C@@H](NC(=O)[C@H](C)NC(=O)[C@H](Cc1c[nH]c2ccccc12)NC(=O)[C@H](CCC(N)=O)NC(=O)[C@@H](Cc1ccccc1)NC(=O)CCCCCNC(=O)CN1CCN(CC(=O)O)CCN(CC(=O)O)CCN(CC(=O)O)CC1)C(C)C [indium-111 labelled] — tissue uptake (Gastrin-releasing peptide receptor (Mus musculus, UniProt P21729); biodistribution; CF-1 mice, bladder; intravenous, 1 h, with: bombesin 100 µg, blocking): 1.96 ± 1.39 %ID/g
CN1CC(=O)N=C1N.C[C@H](CCC(=O)O)[C@H]1CC[C@H]2[C@@H]3CC[C@@H]4C[C@H](O)CC[C@]4(C)[C@H]3C[C@H](O)[C@]12C — antibacterial activity (Shigella flexneri; ATCC 9199; 1 mg per disc, 18 to 24 h, 37 °C): inactive

A few entries again:
C[C@@](O)(C(F)F)[C@H](NC(=O)c1ccc(C#CC#CC2CC2)cc1)C(=O)NO — apparent volume of distribution (Vz/F) (CD-1 mice; intraperitoneal, 40 mg/kg): 2.7 ± 0.7 L/kg
C[C@H]1[C@H](C)CC[C@]2(CO)CC[C@]3(C)C(=CC[C@@H]4[C@@]5(C)CCCNC(C)(C)[C@@H]5CC[C@]43C)[C@H]12 — selectivity index (Human papillomavirus 11; viral replication; C-33 A; reference: CC50 over EC50): < 3
Cc1ccc2ccc3ccc(C)nc3c2n1.Cc1ccc2ccc3ccc(C)nc3c2n1.O.[Cl-].[Cl-].[Cl-].[Yb+3] — zone of inhibition (Enterococcus; vancomycin-resistant; 5 mg/mL): 9 mm
